Measurements collected from several papers.
Compare with care: the assays were run in different laboratories. Values joined by “and” are separate records of one study, mostly repeats; a detail may differ. ± gives the spread as reported.
USP49 ZnF-UBD domain: Ubiquitin carboxyl-terminal hydrolase 49, ZnF-UBD domain (USP49, Homo sapiens, UniProt Q70CQ1)
ZBTB11/CRBN: ZBTB11/CRBN (Homo sapiens, UniProt O95625+Q96SW2)
T1: riboswitch RNA yjdF aptamer (Bacillus subtilis); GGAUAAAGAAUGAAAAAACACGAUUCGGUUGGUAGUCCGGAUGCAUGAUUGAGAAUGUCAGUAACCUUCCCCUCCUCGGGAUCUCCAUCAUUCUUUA

| SMILES | target | assay | test system | setting | scale | measurement | result |
| --- | --- | --- | --- | --- | --- | --- | --- |
| Nc1ncnc2c1ncn2C1CCCC1 | Inositol-tetrakisphosphate 1-kinase (Homo sapiens, UniProt Q13572) | isothermal titration calorimetry |  | 25 °C |  | Gibbs free energy of binding | -9.943 ± 0.0239 kcal/mol |
| Nc1nc2c(ncn2[C@@H]2O[C@@H]3COP(=O)(O)O[C@H]3[C@H]2O)c(=O)[nH]1 | Cone cGMP-gated channel (Morone saxatilis, UniProt Q3I0N1+Q3I0N2) | channel current, agonist, suction electrode | cone outer segments | single cone shown, together with: 20 µM Ca2+ |  | Hill coefficient | 2.15 |
| c1ccc(C(NCc2cccnc2)(c2ccccc2)c2ccccc2)cc1 | KCNQ1 (Homo sapiens, UniProt P51787) | ion current, inhibitor, whole-cell patch clamp | tsA201 | tail current, leak-subtracted |  | Hill coefficient | 0.86 |
| O=C(COP(=O)(O)O)[C@@H](O)[C@H](O)[C@H](O)COP(=O)(O)O | PNPT1 (Homo sapiens, UniProt Q8TCS8) | thermal proteome profiling | HepG2 cell lysate | concentration not given, 57 over 37 °C, mean | reference: compound over control | thermal stability ratio | 0.562 |
| C=CC(=O)N1CCC(COCC(=O)N2CCN(c3nc(-c4cnc(N)nc4C(F)F)nc(N4CCOC[C@@H]4C)n3)CC2)CC1 | GAK (Homo sapiens, UniProt O14976) | KINOMEscan |  | 1 µM |  | remaining binding | 91% |
| NCCS(=O)(=O)O | SLC6A6 (Homo sapiens, UniProt P31641, S402A) | binding, microscale thermophoresis |  | 122 nM, room temperature, together with: 50 nM labelled protein | higher = more binding | normalised MST signal | 0.0382 |
| O=C(O)CCn1c(=O)oc2ccccc21 | USP49 ZnF-UBD domain |  |  |  |  | Kd | > 1000 µM |
| Nc1ncnc2c1ncn2[C@@H]1O[C@H](COP(=O)(O)OP(=O)(O)OP(=O)(O)O)[C@@H](O)[C@H]1O | CKMT1A (Homo sapiens, UniProt P12532, D359N) | substrate, ADP-Glo luminescence |  | pH 8.5, forward reaction, D321N mutant, together with: second substrate in excess |  | Km | 110 ± 20 µM |
| Nc1ncnc2c1ncn2[C@@H]1O[C@H](COP(=O)(O)OP(=O)(O)OP(=O)(O)O)[C@@H](O)[C@H]1O | Hexokinase-3 (HK3, Homo sapiens, UniProt P52790, E254A/R267A) | substrate |  | mutant E254A/R267A, together with: glucose 0.5 mM |  | Km | 2100 ± 100 µM |
| Nc1ncnc2c1ncn2[C@@H]1O[C@H](COP(=O)(O)OP(=O)(O)O)[C@@H](O)[C@H]1O | Cell cycle histidine kinase CckA, CA domain (Caulobacter vibrioides, UniProt Q9X688) | binding, ITC |  | together with: without c-di-GMP |  | association constant | 953 ± 113 M⁻¹ |
| COc1cc(-c2cc(C(C)=O)n3ccccc23)cc(OC)c1Cn1ccnc1 | TAF1 (Homo sapiens, UniProt P21675) |  |  |  |  | ΔTm | 1 °C |
| O=C(O)CCc1ccno1 | USP49 ZnF-UBD domain |  |  |  |  | Kd | > 1000 µM |
| CCC(C)(NCCc1ccc(OC)cc1)c1cccc(NC2=CC(=O)N(C3CCC(=O)NC3=O)C2=O)c1 (stereo not drawn) | ZBTB11/CRBN | protein degradation, degrader, HiBiT luminescence | MOLT-4 |  |  | Dmax | 28% |
| Cc1cc2nc3[nH]c(=O)[nH]c(=O)c3nc2cc1C | T1, riboswitch RNA yjdF aptamer (Bacillus subtilis) | fluorescence titration |  | together with: 380 nM lumichrome |  | Kd | 0.05 µM |
| O=C(CCCc1ccccc1)C(=O)NCCc1ccc(Oc2ccc(C(F)(F)F)cn2)cc1 | APEH (Homo sapiens, UniProt P13798) | inhibitor, FP-biotin chemoproteomics, measured: ACPH | HepG2 | concentration not given | reference: DMSO, lower = stronger inhibition | probe-enriched protein abundance | 516000 a.u. |
| O=C(O)c1ccc(Nc2ncc3c(n2)-c2ccc(Cl)cc2C(c2c(F)cccc2F)=NC3)cc1 | human CK2α2(h) | kinase activity |  | 1 µM |  | remaining activity | 120% |
| CC(C)CC[C@@H](O)[C@@H](C)[C@H]1CC[C@H]2[C@@H]3CC=C4C[C@@H](O)CC[C@]4(C)[C@H]3CC[C@]12C | CYP11A1 (Homo sapiens, UniProt P05108) | substrate binding saturation |  | together with: adrenodoxin 40-fold excess | reference: without adrenodoxin | ΔAmax increase | ~1.3 fold |
| CC[C@H](C)[C@@H]1NC(=O)[C@H](C)NC(=O)[C@H]([C@@H](C)CC)NC(=O)[C@H](CCC(N)=O)NC(=O)[C@H](C)NC(=O)[C@H](CCCNC(=N)N)NC(=O)[C@H](C(C)C)NC(=O)[C@H](CC(C)C)NC(=O)[C@H](CCC(=O)O)NC(=O)[C@H](CCCNC(=N)N)NC(=O)CNC(=O)[C@@H](NC(=O)[C@H](CC(C)C)NC(=O)[C@H](CCCCN)NC(=O)[C@@H](NC(=O)[C@@H](NC(=O)[C@H](CCC(=O)O)NC(=O)[C@H](CCC(=O)O)NC(=O)[C@H](CCSC)NC(=O)[C@H](Cc2c[nH]c3ccccc23)NC(=O)[C@H](CO)NC(=O)[C@@H](N)CC(=O)O)C(C)C)[C@@H](C)CC)CSSC[C@@H]2NC(=O)[C@@H](NC(=O)[C@H](CCCCN)NC(=O)[C@H](CC(N)=O)NC(=O)[C@H](C)NC(=O)[C@H](CC(C)C)NC(=O)[C@H](C)NC(=O)[C@H](CO)NC(=O)[C@H](Cc3ccc(O)cc3)NC(=O)[C@H](CC(C)C)NC(=O)[C@H](CCC(N)=O)NC(=O)c3ccc(-c4c5ccc(=[N+](C)C)cc-5oc5cc(N(C)C)ccc45)c(C(=O)[O-])c3)CSSC[C@H](NC(=O)CNC(=O)[C@H](C(C)C)NC(=O)[C@H](Cc3c[nH]cn3)NC2=O)C(=O)N[C@@H]([C@@H](C)O)C(=O)N[C@@H](CCCCN)C(=O)N[C@@H](CCCNC(=N)N)C(=O)N[C@@H](CO)C(=O)N[C@@H](CC(C)C)C(=O)N[C@@H](C)C(=O)N[C@@H](CCCNC(=N)N)C(=O)N[C@@H](Cc2ccccc2)C(=O)N[C@H](C(=O)O)CSSC[C@@H](C(=O)NCC(=O)N[C@@H](CCSC)C(=O)N[C@@H](CO)C(=O)N[C@H](C(=O)N[C@@H](Cc2c[nH]c3ccccc23)C(=O)N[C@@H](CO)C(=O)O)[C@@H](C)O)NC1=O | Relaxin receptor 1 (RXFP1, Homo sapiens, UniProt Q9HBX9, F76A/Y80A) | dissociation, NanoBRET |  | together with: relaxin 10 µM |  | koff slow phase | 0.000837 s⁻¹ |

| SMILES | target | assay | test system | setting | scale | measurement | result |
| --- | --- | --- | --- | --- | --- | --- | --- |
| NCCCC(=O)O | SLC6A6 (Homo sapiens, UniProt P31641, G62A) | binding, microscale thermophoresis |  | 250 µM, room temperature, together with: 50 nM labelled protein | higher = more binding | normalised MST signal | 0.0432 |
| Nc1ccc(C(=O)O)cc1 | BEST1, with wild-type BEST1 (Homo sapiens, UniProt O76090, L234P) | ion current, whole-cell patch clamp | HEK293 co-expressing mutant and wild-type | concentration not given, voltage 60 mV |  | current density | 10.8 pA/pF and 13.2 pA/pF and 17.9 pA/pF and 5.61 pA/pF and 33.1 pA/pF and 8.99 pA/pF |
| CNCC(=O)O | Sodium- and chloride-dependent glycine transporter 2 (Homo sapiens, UniProt Q9Y345, S479G) | glycine uptake, inhibitor, [3H]glycine uptake |  | 3000 µM, S479G mutant, log concentration 3, together with: [3H]glycine | reference: no inhibitor | remaining activity | 34.4% |
| CCC(C)(NCCc1ccc(C)cc1)c1cccc(NC2=CC(=O)N(C3CCC(=O)NC3=O)C2=O)c1 (stereo not drawn) | ZBTB11/CRBN | protein degradation, degrader, HiBiT luminescence | MOLT-4 |  |  | Dmax | 29% |
| O=c1nc(SCc2cc(F)cc(C(F)(F)F)c2)nc(SCc2csc3ccc(Cl)cc23)[nH]1 | TOP2B (Homo sapiens, UniProt Q02880) | decatenation |  | 7.8 µM |  | mean decatenated DNA | 71.9% |
| Nc1nc2c(ncn2[C@@H]2O[C@H](COP(=O)(O)O)[C@@H](O)[C@H]2O)c(=O)[nH]1 | GUK1 (Homo sapiens, UniProt Q16774) | enzyme activity, NADH-coupled |  | 31.25 µM, together with: NaCl 150 mM |  | reaction velocity | 0.0496 µM/s and 0.0294 µM/s and 0.0446 µM/s |
| COc1cc2c(cc1OC)CN(C(C)CCc1ccc(O)cc1)CC2 (stereo not drawn) | Tmem97 (Rattus norvegicus, UniProt Q5U3Y7) | binding |  |  | reference: Ki sigma-1 over Ki sigma-2 | selectivity ratio | 22 and ~22 |
| N[C@@H](Cc1ccc(O)cc1)C(=O)Nc1ccc2ccccc2c1 | rat neuron-specific aminopeptidase | substrate |  | MW 110 kDa |  | kcat | 11.2 s⁻¹ |
| O=c1nc(SCc2cc(F)cc(C(F)(F)F)c2)nc(SCc2ccc3sccc3c2)[nH]1 | TOP2A (Homo sapiens, UniProt P11388) | DNA cleavage |  | 15.6 µM, replicate 2 |  | linear DNA | 4.06% |
| COc1cc(C(=O)NCC2(N(C)C)CCCC2)cc(OC)c1OCc1ccccc1 | Sodium- and chloride-dependent glycine transporter 2 (Homo sapiens, UniProt Q9Y345) | isothermal titration calorimetry |  | 500 nM to 50 µM, together with: protein 21 µM |  | binding | no binding |
| CCCCc1nc2c(N)nc3ccccc3n2n1 | TLR7 (Homo sapiens, UniProt Q9NYK1) | reporter gene, agonist, NF-κB reporter | HEK-Blue TLR7 |  |  | EC50 | inactive |
| CC(=O)N[C@H](C(=O)N1C[C@H](O)C[C@H]1C(=O)NCc1ccc(-c2scnc2C)cc1)C(C)(C)SCCCCCCNC(=O)C[C@@H]1N=C(c2ccc(Cl)cc2)c2c(sc(C)c2C)-n2c(C)nnc21 | Bromodomain-containing protein 3, BD1 (BRD3, Homo sapiens, UniProt Q15059) | binding, ITC |  | 25 °C, compound in cell, protein in syringe |  | ΔH | -18.4 ± 0.1 kcal/mol |
| Nc1ncnc2c1ncn2[C@@H]1O[C@H](COP(=O)(O)CP(=O)(O)OP(=O)(O)O)[C@@H](O)[C@H]1O | P2X purinoceptor 1 (P2RX1, Homo sapiens, UniProt P51575, R292A) | calcium influx |  | 1 µM | reference: ionomycin response | calcium influx | 0.059% and 0.101% and 0.713% and 0.823% |
| CC[C@@H]1[C@H](F)C(=O)N[C@@H]1COc1nccc2cc(C(N)=O)c(OC)cc12 | IRAK3 (Homo sapiens, UniProt Q9Y616) | ATP-site probe binding, inhibitor, ActivX ATP probe profiling | THP-1 cell lysate | 0.04 mM, kinase domain site |  | inhibition | -1.7% |
| [O-][S+]1CCCCS1 (stereo not drawn) | SOD1 (Homo sapiens, UniProt P00441, G94A) | measured: SOD1 dimer | SOD1 G93A transgenic mice, brain | sc, 30 mg/kg twice daily |  | target engagement | 84.7% |
| OC1(c2ccc(Cl)cc2)CCN(Cc2c[nH]c3ccccc23)CC1 | CatSper channel complex (Homo sapiens, UniProt Q7RTX7+Q86XQ3+Q8NEC5+Q96P56) | ion current, whole-cell patch clamp | human sperm | 10 µM, at +80 mV |  | outward current density | 23 ± 4 pA/pF |
| Cc1cc2nc3c(=O)[nH]c(=O)nc-3n(C[C@H](O)[C@H](O)[C@H](O)COP(=O)(O)O)c2cc1C | NADH-dependent FMN reductase SfnF (sfnF, Pseudomonas fluorescens, UniProt Q3K9A2) | surface plasmon resonance |  |  |  | kon | 271000 M⁻¹ s⁻¹ |
| CN1CCC[C@H]1c1cccnc1 | Chrnd/Chrna1/Chrne (Mus musculus, UniProt P02716+P04756+P20782, G173R) |  |  |  |  | koff | 1360 s⁻¹ |

Some of these lines once more:
| SMILES | target | assay | test system | setting | scale | measurement | result |
| --- | --- | --- | --- | --- | --- | --- | --- |
| CNCC(=O)O | Sodium- and chloride-dependent glycine transporter 2 (Homo sapiens, UniProt Q9Y345, S479G) | glycine uptake, inhibitor, [3H]glycine uptake |  | 3000 µM, S479G mutant, log concentration 3, together with: [3H]glycine | reference: no inhibitor | remaining activity | 34.4% |
| CCC(C)(NCCc1ccc(C)cc1)c1cccc(NC2=CC(=O)N(C3CCC(=O)NC3=O)C2=O)c1 (stereo not drawn) | ZBTB11/CRBN | protein degradation, degrader, HiBiT luminescence | MOLT-4 |  |  | Dmax | 29% |
| O=c1nc(SCc2cc(F)cc(C(F)(F)F)c2)nc(SCc2csc3ccc(Cl)cc23)[nH]1 | TOP2B (Homo sapiens, UniProt Q02880) | decatenation |  | 7.8 µM |  | mean decatenated DNA | 71.9% |
